Results pooled from the literature.
Numbered parts are unrelated; each lists some results of a single study. Values joined by “and” are separate records of one study, mostly repeats; a detail may differ.
UniProt Q9NQU5, sequence (whole entry, looked up): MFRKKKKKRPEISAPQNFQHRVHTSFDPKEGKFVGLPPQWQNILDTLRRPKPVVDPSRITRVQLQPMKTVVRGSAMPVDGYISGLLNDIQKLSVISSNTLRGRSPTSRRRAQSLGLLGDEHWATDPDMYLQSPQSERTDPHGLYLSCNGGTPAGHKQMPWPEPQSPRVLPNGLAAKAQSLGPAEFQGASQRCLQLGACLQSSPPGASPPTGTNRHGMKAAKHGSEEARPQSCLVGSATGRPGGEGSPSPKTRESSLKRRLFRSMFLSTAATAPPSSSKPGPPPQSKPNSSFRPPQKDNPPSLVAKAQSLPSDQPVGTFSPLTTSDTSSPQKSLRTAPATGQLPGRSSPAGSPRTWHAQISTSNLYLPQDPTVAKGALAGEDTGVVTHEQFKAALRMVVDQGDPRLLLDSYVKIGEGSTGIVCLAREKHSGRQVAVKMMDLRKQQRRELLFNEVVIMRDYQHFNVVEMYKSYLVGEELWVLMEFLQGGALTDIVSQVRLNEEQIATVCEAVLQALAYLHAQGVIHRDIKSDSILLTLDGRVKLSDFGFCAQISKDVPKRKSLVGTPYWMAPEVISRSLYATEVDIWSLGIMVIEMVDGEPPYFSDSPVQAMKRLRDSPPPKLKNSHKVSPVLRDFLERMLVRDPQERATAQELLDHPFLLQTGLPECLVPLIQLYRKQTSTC
UniProt P23458, sequence (whole entry, looked up): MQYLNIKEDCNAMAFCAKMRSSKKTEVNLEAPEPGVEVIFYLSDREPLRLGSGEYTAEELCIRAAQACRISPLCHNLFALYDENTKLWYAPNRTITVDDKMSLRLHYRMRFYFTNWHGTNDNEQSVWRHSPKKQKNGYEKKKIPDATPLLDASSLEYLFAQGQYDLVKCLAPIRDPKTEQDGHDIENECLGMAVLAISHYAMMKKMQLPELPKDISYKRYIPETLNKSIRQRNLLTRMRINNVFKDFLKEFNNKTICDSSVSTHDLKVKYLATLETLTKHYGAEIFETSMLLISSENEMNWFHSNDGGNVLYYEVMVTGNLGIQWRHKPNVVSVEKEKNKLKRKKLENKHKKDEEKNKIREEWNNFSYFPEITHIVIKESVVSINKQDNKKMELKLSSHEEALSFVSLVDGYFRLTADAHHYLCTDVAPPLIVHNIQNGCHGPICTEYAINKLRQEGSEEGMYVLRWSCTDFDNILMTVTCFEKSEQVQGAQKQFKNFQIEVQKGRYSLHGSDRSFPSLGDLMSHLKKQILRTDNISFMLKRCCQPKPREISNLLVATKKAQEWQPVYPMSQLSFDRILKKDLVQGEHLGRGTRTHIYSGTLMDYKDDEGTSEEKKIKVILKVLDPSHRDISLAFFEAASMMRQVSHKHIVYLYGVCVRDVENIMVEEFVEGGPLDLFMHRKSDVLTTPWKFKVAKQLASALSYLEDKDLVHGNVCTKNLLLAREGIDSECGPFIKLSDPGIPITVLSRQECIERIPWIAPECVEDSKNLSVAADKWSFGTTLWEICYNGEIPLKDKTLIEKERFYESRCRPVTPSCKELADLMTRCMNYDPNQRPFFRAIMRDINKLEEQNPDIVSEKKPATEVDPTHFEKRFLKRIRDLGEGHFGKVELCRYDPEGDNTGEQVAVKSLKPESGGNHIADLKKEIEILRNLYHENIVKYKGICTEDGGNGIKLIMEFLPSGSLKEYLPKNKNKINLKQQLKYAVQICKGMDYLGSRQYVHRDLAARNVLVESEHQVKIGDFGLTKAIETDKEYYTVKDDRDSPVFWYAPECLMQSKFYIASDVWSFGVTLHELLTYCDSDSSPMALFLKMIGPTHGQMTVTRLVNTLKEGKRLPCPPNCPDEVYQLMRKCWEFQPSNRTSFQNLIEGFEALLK
UniProt Q13153, sequence (whole entry, looked up): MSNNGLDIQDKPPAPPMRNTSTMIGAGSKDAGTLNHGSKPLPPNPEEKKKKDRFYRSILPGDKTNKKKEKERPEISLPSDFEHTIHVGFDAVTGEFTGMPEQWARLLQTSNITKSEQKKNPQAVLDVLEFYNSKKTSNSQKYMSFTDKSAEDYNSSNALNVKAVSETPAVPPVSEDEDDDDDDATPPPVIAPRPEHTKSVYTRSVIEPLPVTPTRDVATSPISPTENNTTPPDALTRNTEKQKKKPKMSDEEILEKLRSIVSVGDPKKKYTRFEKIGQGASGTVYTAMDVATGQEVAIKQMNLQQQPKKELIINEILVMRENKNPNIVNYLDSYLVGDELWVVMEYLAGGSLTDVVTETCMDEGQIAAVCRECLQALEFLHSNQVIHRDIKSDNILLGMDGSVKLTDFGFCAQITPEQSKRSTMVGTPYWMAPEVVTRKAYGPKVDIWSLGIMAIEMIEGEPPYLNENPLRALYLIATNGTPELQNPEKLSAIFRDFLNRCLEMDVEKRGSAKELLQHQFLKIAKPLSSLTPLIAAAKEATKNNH
UniProt P29317, sequence (whole entry, looked up): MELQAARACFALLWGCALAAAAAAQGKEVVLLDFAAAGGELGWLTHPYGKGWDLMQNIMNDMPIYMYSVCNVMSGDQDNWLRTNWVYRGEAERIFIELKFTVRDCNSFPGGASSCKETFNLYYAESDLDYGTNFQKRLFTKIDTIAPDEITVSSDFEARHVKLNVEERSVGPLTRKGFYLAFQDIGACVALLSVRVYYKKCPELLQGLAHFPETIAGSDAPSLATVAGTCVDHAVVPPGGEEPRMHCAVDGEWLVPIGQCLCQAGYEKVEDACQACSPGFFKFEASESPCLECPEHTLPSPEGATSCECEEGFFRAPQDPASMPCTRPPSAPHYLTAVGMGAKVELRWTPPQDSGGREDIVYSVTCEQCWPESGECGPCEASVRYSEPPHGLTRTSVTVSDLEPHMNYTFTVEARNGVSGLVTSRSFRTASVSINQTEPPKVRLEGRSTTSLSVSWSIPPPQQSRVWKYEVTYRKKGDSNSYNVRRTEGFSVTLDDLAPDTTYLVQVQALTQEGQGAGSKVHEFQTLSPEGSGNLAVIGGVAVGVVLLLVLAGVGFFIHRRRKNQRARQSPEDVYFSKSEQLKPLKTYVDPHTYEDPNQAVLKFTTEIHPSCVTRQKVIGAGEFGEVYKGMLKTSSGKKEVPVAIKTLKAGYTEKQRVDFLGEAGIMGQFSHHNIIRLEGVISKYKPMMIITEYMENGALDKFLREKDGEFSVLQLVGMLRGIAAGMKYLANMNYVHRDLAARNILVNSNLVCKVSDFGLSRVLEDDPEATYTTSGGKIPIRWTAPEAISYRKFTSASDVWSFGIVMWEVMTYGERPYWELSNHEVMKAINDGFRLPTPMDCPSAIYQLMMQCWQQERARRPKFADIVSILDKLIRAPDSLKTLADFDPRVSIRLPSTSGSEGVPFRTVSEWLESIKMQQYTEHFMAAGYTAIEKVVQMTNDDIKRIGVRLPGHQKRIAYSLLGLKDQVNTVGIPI
UniProt P08069, sequence (whole entry, looked up): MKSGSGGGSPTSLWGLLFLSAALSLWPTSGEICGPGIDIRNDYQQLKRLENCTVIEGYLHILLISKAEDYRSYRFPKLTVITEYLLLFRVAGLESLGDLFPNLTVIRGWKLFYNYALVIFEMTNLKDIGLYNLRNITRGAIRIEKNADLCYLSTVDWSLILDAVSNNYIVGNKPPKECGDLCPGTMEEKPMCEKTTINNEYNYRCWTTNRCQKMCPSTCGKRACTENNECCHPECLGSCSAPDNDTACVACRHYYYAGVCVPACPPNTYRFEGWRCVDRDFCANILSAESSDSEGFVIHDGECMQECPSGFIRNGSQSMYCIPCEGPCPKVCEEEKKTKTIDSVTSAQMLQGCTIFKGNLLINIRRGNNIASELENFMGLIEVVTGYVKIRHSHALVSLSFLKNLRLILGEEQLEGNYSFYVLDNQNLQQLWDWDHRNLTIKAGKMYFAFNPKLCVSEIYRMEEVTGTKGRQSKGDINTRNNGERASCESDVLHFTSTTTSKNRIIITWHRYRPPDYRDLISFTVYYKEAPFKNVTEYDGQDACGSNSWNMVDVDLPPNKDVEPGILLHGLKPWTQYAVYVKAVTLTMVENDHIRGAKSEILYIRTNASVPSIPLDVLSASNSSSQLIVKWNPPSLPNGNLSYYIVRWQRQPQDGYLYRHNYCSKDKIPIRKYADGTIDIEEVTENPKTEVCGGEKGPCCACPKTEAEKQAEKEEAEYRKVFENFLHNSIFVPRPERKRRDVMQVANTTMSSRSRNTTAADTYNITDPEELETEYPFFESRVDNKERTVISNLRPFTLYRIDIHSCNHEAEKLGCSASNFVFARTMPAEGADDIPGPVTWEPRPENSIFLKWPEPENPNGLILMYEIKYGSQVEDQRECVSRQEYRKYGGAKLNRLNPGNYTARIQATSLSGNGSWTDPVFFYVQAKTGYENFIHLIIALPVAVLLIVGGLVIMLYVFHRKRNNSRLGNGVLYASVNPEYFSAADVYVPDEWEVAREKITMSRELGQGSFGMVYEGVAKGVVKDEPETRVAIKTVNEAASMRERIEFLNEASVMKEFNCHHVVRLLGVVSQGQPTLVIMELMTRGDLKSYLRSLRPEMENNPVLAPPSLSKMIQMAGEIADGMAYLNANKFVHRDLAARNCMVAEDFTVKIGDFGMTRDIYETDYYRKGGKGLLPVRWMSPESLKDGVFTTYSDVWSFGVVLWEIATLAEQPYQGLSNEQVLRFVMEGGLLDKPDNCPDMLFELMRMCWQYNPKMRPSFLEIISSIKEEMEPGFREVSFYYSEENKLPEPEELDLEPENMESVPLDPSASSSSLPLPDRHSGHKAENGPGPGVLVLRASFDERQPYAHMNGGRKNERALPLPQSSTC
UniProt Q9HBY8, sequence (whole entry, looked up): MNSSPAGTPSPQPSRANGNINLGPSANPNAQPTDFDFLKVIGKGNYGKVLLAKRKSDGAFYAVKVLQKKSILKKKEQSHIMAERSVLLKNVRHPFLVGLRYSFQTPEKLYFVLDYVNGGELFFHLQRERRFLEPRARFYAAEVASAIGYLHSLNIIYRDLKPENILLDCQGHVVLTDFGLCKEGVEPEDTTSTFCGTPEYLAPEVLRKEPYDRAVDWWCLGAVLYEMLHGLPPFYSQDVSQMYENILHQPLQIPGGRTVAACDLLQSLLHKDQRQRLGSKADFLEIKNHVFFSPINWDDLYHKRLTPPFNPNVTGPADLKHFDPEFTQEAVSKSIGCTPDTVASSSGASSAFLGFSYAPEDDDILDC

Block 1
Species: human
Matrix: microsomes or S9
Tested at: 2 µM
Time: 0.5 h
COc1cc(C(=O)N2CCCCCC2)c(N(C)S(C)(=O)=O)cc1OC gave a remaining compound of 69.9%.
CCOP(=O)(Cc1ccc(-c2ccccc2OC)cn1)OCC has a remaining compound of 72%.
With O=C(Cc1ccc(Cl)s1)NC(CO)c1c(F)cccc1F (stereo not drawn) the remaining compound was 35.7%.
For Brc1cc(-c2noc([C@H]3CCCO3)n2)c2ncnn2c1, the remaining compound was 35.9%.
With CCOC(=O)C1CCN(c2nc(C)cc(Cl)n2)CC1 the remaining compound was 0.0185%.
O=S(=O)(/C(=C(\c1ccccc1)n1ccnc1)c1ccccc1)c1ccccc1 gave a remaining compound of 8.23%.

Block 2
Cell line: HaCaT
Tested at: 100 µM
Time: 18 h
The viability of C=C1CC[C@H](O)C/C1=C/C=C1\CCC[C@]2(C)[C@@H]([C@H](C)/C=C/[C@H](C)C(C)C)CC[C@@H]12 is reported as 47.5%.
COC(=O)C1=C(C)NC(C)=C(C(=O)OCC(C)C)C1c1ccccc1[N+](=O)[O-] (stereo not drawn) has a viability of 27.3%.
O=C(c1ccc(OCCN2CCCCC2)cc1)c1c(-c2ccc(O)cc2)sc2cc(O)ccc12 gave a viability of 16.3%.
N[C@@H](Cc1ccc(O)c(O)c1)C(=O)O gave a viability of 125%.
OC[C@@H](O)[C@H](O)[C@@H](O)CO has a viability of 110%.
The viability of Cc1c(O)cccc1C(=O)N[C@@H](CSc1ccccc1)[C@H](O)CN1C[C@H]2CCCC[C@H]2C[C@H]1C(=O)NC(C)(C)C is reported as 49.4%.

Block 3
Compound: O=C1CCC(N2Cc3cc(C4CCN(Cc5ccccc5)CC4)ccc3C2=O)C(=O)N1 (stereo not drawn)
Matrix: plasma
Route: intravenous
Dose: 1.0 mg/kg
The “terminal volume of distribution” was 21.3 L/kg (Sprague Dawley rat, male).
It gave 13.4 L/kg for “terminal volume of distribution” (ICR mice, male).
It gave 18.8 L/kg for “terminal volume of distribution” (Sprague Dawley rats, male).

Block 4
SMILES: O=C1Cc2c([nH]c3ccc([N+](=O)[O-])cc23)-c2ccccc2N1
Effect on: enzyme activity
Mode: inhibitor
Tested at: 0.5 µM
Relative to: control
It gave 91.7% for remaining activity (Calcium/calmodulin-dependent protein kinase kinase 1 (CAMKK1, Homo sapiens, UniProt Q8N5S9)).
It gave 111% for remaining activity (Serine/threonine-protein kinase Sgk2 (SGK2, Homo sapiens, UniProt Q9HBY8)).
For Serine/threonine-protein kinase PAK 6 (PAK6, Homo sapiens, UniProt Q9NQU5): remaining activity read 101%.
The remaining activity was 70.6% (Ribosomal protein S6 kinase alpha-3 (RPS6KA3, Homo sapiens, UniProt P51812)).
For Serine/threonine-protein kinase PAK 1 (PAK1, Homo sapiens, UniProt Q13153): remaining activity read 36.7%.
The remaining activity was 111% (Dual specificity protein kinase CLK1 (CLK1, Homo sapiens, UniProt P49759)).
The remaining activity was 97.8% (Tyrosine-protein kinase JAK1 (JAK1, Homo sapiens, UniProt P23458)).
It gave 94.8% for remaining activity (Calcium/calmodulin-dependent protein kinase type 1 (CAMK1, Homo sapiens, UniProt Q14012)).
For Dual specificity protein kinase CLK2 (CLK2, Homo sapiens, UniProt P49760): remaining activity read 97.7%.
The remaining activity was 95.9% (Casein kinase I isoform epsilon (CSNK1E, Homo sapiens, UniProt P49674)).
It gave 98.2% for remaining activity (Vascular endothelial growth factor receptor 1 (FLT1, Homo sapiens, UniProt P17948)).
The remaining activity was 93% (Insulin-like growth factor 1 receptor (IGF1R, Homo sapiens, UniProt P08069)).
The remaining activity was 137% (Tyrosine-protein kinase Tec (TEC, Homo sapiens, UniProt P42680)).
For Serine/threonine-protein kinase SIK2 (SIK2, Homo sapiens, UniProt Q9H0K1): remaining activity read 56.5%.
It gave 109% for remaining activity (Protein kinase C zeta type (PRKCZ, Homo sapiens, UniProt Q05513)).
The remaining activity was 96.7% (Tyrosine-protein kinase receptor TYRO3 (TYRO3, Homo sapiens, UniProt Q06418)).
It gave 92.7% for remaining activity (Ephrin type-A receptor 2 (EPHA2, Homo sapiens, UniProt P29317)).
The remaining activity was 98.2% (Protein kinase C theta type (PRKCQ, Homo sapiens, UniProt Q04759)).
The remaining activity was 100% (SRSF protein kinase 1 (SRPK1, Homo sapiens, UniProt Q96SB4)).

Block 5
Target: GTPase KRas (KRAS, Homo sapiens, UniProt P01116)
Effect on: target engagement in cells
Technique: BRET
CCC(=O)N1CCN(c2nc(OC[C@@H]3CCCN3C)nc3c2CCN(c2cccc4cccc(Cl)c24)C3)C[C@@H]1CC#N gave an IC50 of 590 nM.
For CN1CCC[C@H]1COc1nc2c(c(N3CCN(S(C)(=O)=O)[C@@H](CC#N)C3)n1)CCN(c1cccc3cccc(Cl)c13)C2, the IC50 was 410 nM.
The IC50 of CC(=O)N1CCN(c2nc(OC[C@@H]3CCCN3C)nc3c2CCN(c2cccc4cccc(Cl)c24)C3)C[C@@H]1CC#N is reported as 750 nM.

Single results of other studies
N#CN1CC[C@@H](C(=O)Nc2nc3c(s2)CN(C(=O)CN=[N+]=[N-])CC3)C1 gave a Ki of > 10000 nM (Alpha-2A adrenergic receptor (ADRA2A, Homo sapiens, UniProt P08913); binding, radioligand binding).
For c1ccc(Oc2ccc(Nc3c4c(nc5ccccc35)CCC4)cc2)cc1, the parasite load was 572 amastigotes/g tissue and 100 amastigotes/g tissue and 65.8 amastigotes/g tissue and 58.5 amastigotes/g tissue and 63.3 amastigotes/g tissue and 112 amastigotes/g tissue (Leishmania infantum; qPCR; MHOM/BR/1972/BH46, golden hamster, chronic infection, spleen; oral, 10 mg/kg/day, 10 days, added: glucantime 50 mg/kg/day i.p.).
